Experimental data from different studies.
Each numbered part is a random draw from the data of one study; scales do not carry over between parts. Substitutions count along the parent as printed.

Set 1 — target: CCND1, cyclin fold, Cln2 fusion (human); technique: yeast growth competition, sequencing; matrix: yeast; notes: strong parent motif; baseline: not given; reading: higher = stronger binding
Parent: INSM1 docking peptide (human); PKAIRKLHFEDEV
| Substitution | normalised enrichment score |
| --- | --- |
| PKAIRKLHFEAEV [D11A] | 3.51 |
| PKAIRALHFEDEV [K6A] | 3.88 |
| PKSIRKLHFEDEV [A3S] | 1.9 |
| PKAIRKLHFEDCV [E12C] | 4.51 |
| PKAIRKCHFEDEV [L7C] | 0.163 |
| PSAIRKLHFEDEV [K2S] | 5.3 |
| PKFIRKLHFEDEV [A3F] | 0.31 |
| PKAIRKLHFGDEV [E10G] | 5.5 |
| PKAIRKLHFEIEV [D11I] | 3.03 |
| PKAIRKEHFEDEV [L7E] | 0.127 |
| PKAIRKYHFEDEV [L7Y] | 0.0995 |
| PKAIVKLHFEDEV [R5V] | 1.48 |
| PKAIRKPHFEDEV [L7P] | 0.0936 |
| PKAIRMLHFEDEV [K6M] | 3.61 |
| PKAIRKLHFEDHV [E12H] | 4.36 |
| PKAARKLHFEDEV [I4A] | 5.7 |
| PKAIRKLHFADEV [E10A] | 3.12 |
| PKAIRKLHFWDEV [E10W] | 0.976 |
| PKAIRKWHFEDEV [L7W] | -0.295 |

Set 2 — technique: Sort-seq; refers to: YFP reporter; matrix: E. coli; notes: PhoQ-PhoP variant library; with: 10 µM Mg2+; baseline: high Mg2+ state; reading: higher = stronger signaling
Molecule: PhoQ, residues 284 288 289 292 302 303 ALSMDL
| target | fold induction |
| --- | --- |
| PhoP, residues 12 14 15 18 19 LHHYF (Escherichia coli, UniProt P23836) | 8.91 |
| PhoP, residues 12 14 15 18 19 TPWTL (Escherichia coli, UniProt P23836) | 16.6 |
| PhoP, residues 12 14 15 18 19 VGHWL (Escherichia coli, UniProt P23836) | 2.2 |
| PhoP, residues 12 14 15 18 19 NFFVT (Escherichia coli, UniProt P23836) | 1.09 |

Set 3 — technique: protein-binding microarray; molecule type: double-stranded DNA, one strand shown; matrix: in vitro; tested at: 0.8 µM; notes: whole 60-bp probe, no competitor; reading: higher = stronger binding
Target: Centromere-binding protein 1, full length, N-terminal tag (CBF1, Saccharomyces cerevisiae, UniProt P17106, residues 1-351)
Chain of UniProt P17106 (whole entry, looked up): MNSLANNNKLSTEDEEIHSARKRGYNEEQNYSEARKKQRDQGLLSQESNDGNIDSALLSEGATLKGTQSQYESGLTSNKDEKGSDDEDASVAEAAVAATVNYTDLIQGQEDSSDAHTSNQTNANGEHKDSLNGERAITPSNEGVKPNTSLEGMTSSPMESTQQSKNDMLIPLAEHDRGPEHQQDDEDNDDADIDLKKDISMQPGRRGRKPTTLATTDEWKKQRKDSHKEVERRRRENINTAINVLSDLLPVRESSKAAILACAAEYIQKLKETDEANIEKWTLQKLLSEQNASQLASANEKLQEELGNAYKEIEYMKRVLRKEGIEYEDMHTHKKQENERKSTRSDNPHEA
| Strand | fluorescence intensity [a.u.] |
| --- | --- |
| GAAAAAAAAGCTCACCACGAAAAAACTGAAAAATAGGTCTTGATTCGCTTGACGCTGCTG | 564 |
| CTAGTAGTTACGGTGCACGCAGATGCAATGCTATTCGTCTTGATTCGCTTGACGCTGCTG | 569 |
| GAATATATAAAAGAACAGGTGACTCCGTTTTCATAGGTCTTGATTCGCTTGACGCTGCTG | 1880 |
| GAATAAAAATGCTATGTCACCTCGAAAGCAAGATAGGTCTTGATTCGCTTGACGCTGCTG | 578 |
| CTATGGCTCTTTAACCACGAGTGCCCACGGAGGTTCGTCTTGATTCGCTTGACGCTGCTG | 502 |
| CTACATGGTGTCCATCACGGTCACATGGTGCAGTTCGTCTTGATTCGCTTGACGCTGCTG | 10000 |
| GAATGTCATAATTACCACATGCCCTTTATATGTTAGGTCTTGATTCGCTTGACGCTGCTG | 765 |
| CTACATAGCGGGCCAAGCGTGGGTCACGTGCTGTTCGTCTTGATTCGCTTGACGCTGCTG | 24000 |
| CTACTGTGCTAGTCCCACGTGTGAGTGCCAAGGTTCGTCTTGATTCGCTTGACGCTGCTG | 1600 |
| CCTAACTACTATACTCACGCTGTATAGCTTCGTACAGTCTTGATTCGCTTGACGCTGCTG | 545 |
| GAAAGAAAAGTACATGATGTGTAAATTAACAAGTAGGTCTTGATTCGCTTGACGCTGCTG | 530 |
| GAACAAGAGTTCTTCCACGTTTTGTTTATATCATAGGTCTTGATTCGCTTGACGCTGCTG | 618 |
| GAATCTCGGTTCAATCAGTTGAATAGCGAACCTTAGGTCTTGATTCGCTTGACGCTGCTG | 516 |
| GAAACAAATAGCCATCATGATTCTCTTTTAAGATAGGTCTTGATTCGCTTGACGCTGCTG | 531 |
| GAACATAAATAAGGGCACGTACACTAAAAAAGCTAGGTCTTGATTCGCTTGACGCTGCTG | 647 |
| CCTAACTACTATAATGCCGTGGCATAGCTTCGTACAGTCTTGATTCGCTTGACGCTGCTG | 509 |

Set 4 — technique: universal PBM; molecule type: double-stranded DNA, one strand shown; matrix: in vitro; tested at: 600 nM; reading: higher = stronger binding
Target: Sal-like protein 4, full length isoform A (SALL4, Homo sapiens, UniProt Q9UJQ4, residues 1-1053)
Chain of UniProt Q9UJQ4 (whole entry, looked up): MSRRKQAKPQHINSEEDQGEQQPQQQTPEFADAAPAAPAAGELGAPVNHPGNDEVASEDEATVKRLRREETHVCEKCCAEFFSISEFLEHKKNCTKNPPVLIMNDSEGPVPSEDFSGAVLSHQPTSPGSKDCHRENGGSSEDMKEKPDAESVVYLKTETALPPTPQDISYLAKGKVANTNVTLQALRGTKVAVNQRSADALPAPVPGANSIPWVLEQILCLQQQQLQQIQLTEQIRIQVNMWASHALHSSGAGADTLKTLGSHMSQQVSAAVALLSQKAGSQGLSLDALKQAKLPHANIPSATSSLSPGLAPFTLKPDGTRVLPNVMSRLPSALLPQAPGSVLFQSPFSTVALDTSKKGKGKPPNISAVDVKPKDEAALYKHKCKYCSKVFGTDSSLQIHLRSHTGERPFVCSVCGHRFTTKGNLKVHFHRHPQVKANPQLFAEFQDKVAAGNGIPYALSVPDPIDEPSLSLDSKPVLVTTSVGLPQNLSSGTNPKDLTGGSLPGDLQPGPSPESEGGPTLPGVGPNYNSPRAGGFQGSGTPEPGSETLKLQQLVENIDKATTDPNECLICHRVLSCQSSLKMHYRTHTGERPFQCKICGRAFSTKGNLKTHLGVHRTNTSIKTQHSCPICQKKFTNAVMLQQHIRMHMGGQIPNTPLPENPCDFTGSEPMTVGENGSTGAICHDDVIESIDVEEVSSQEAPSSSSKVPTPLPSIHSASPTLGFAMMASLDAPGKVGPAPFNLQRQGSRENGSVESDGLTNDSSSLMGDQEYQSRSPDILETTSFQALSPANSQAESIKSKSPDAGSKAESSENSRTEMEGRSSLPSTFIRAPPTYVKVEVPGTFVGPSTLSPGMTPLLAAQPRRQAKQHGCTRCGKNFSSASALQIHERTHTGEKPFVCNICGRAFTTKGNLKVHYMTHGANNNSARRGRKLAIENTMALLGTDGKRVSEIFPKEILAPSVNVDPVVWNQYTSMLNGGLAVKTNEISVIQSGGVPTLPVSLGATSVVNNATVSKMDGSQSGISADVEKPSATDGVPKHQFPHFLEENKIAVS
Notes: 8-mer, flanks averaged, mean of replicates
| Strand | E-score |
| --- | --- |
| AGATTAGC | 0.0719 |
| ATGTACAG | 0.0995 |
| CTGCTGCC | -0.227 |
| ACTCCCAG | -0.106 |
| CTGTGGAC | -0.151 |
| ATCCTCTA | -0.0142 |
| CGACCGAG | -0.339 |
| AGCCTGTC | -0.184 |
| AATGGCCC | -0.261 |
| AGCTATGA | 0.181 |
| CTTTACCA | 0.117 |
| CCGGAAGC | -0.31 |
| CGTACTAC | 0.0348 |
| AAATTGTA | 0.317 |
| AATGAAGT | 0.21 |

For quick reference, copied from above (set 1):
| Substitution | normalised enrichment score |
| --- | --- |
| PKAIRKLHFEIEV [D11I] | 3.03 |
| PKAIRKWHFEDEV [L7W] | -0.295 |
| PKAIRKCHFEDEV [L7C] | 0.163 |
| PKAIRMLHFEDEV [K6M] | 3.61 |
| PSAIRKLHFEDEV [K2S] | 5.3 |
| PKAARKLHFEDEV [I4A] | 5.7 |
| PKAIRKEHFEDEV [L7E] | 0.127 |
| PKAIRKLHFEAEV [D11A] | 3.51 |
